Measured values collected from several papers.
Lines come from different studies, so protocols differ. Numbers after ± are the reported error.
Cell line: A2780

CC(C)c1cccc(C(C)C)c1N1CCN(c2c(C(C)C)cccc2C(C)C)C1=[Se].[Cl][Ag]  IC50 (cell growth or viability, MTT; 72 h): 0.6 µM
CC12CCC3c4ccc(OCCCOc5no[n+]([O-])c5S(=O)(=O)c5ccccc5)c(Br)c4CCC3C1CCC2O (stereo not drawn)  IC50 (cell proliferation, MTT; 48 h): 0.029 µM
Cc1cc(C)c(N[C](NCc2cccc(N[C](Nc3c(C(C)C)cccc3C(C)C)=[Pd-]([Cl])([Cl])[C]#[N+]c3c(C(C)C)cccc3C(C)C)c2)=[Au][Cl])c(C)c1  IC50 (cell growth or viability): > 100 µM
COc1ccc(COC[C@](O)(CNCc2ccc(F)cc2)[C@@H]2CC[C@@H](C)C[C@H]2OCc2ccc(OC)cc2)cc1  IC50 (cell growth or viability, MTT; 72 h): 1.9 µM
CC1(C)OB(c2ccc(COC(=O)N[c-]3cccc3)cc2)OC1(C)C.[Fe+2].c1cc[cH-]c1  IC50 (cell growth or viability, MTT; 48 h): 23.9 µM
COc1ccc(CNC[C@@](O)(COCc2ccccc2)[C@@H]2CC[C@@H](C)C[C@H]2OCc2ccccc2)cc1  IC50 (cell growth or viability, MTT; 72 h): 3.8 µM
CC(C)c1cccc(C(C)C)c1-n1c(Cl)c(Cl)n(-c2c(C(C)C)cccc2C(C)C)c1=[Se].[Cl][Au]  IC50 (cell growth or viability; 72 h, 3D culture): 9.2 µM
CCCCCCCCCCCCCCCCNC(=O)[O][Pt]([Cl])([Cl])[O]C(=O)CCC(=O)O.N.N  IC50 (cell growth or viability, MTT; 72 h): 0.16 µM
[Cl][Pd-2]1([Cl])[N+](=P(c2ccccc2)(c2ccccc2)C2C=CC=C2)Cc2cccc[n+]21.[Cl][Pd-2]1([Cl])[N+](=P(c2ccccc2)(c2ccccc2)C2C=CC=C2)Cc2cccc[n+]21.[Fe+2]  IC50 (cell growth or viability, MTT; 74 h): 2 µM
Cc1cc(C)c(N[C](NCc2ccc(N[C](Nc3c(C(C)C)cccc3C(C)C)=[Pd-]([Cl])([Cl])[C]#[N+]c3c(C(C)C)cccc3C(C)C)cc2)=[Au][Cl])c(C)c1  IC50 (cell growth or viability): > 100 µM
[Cl][Pd-2]1([Cl])[N+](=P(c2ccccc2)(c2ccccc2)c2ccccc2)Cc2cccc[n+]21  IC50 (cell growth or viability, MTT): 6 to 7 µM
CC1=CC(c2cccc(C(F)(F)F)c2)=[O+][Ru-]([Cl])[O]1.Cc1c(C)c(C)c(C)c(C)c1C  IC50 (cell growth or viability, MTT): 5.1 µM
C[C@@H]1CC[C@@H]([C@@](O)(CNCc2ccccc2F)COCc2ccccc2)[C@H](OCc2ccccc2)C1  IC50 (cell growth or viability, MTT; 72 h): 4 µM
COC(=O)CCC(=O)[O][Pt-2]1([OH])([Cl])([Cl])[NH2+]CC[N+]1(C)C  IC50 (cell viability, EZ4U; 96 h): 19.7 ± 0.4 µM
CC(C)=CCC1=C([O-])C(=O)c2ccccc2C1=O.CC(C)=CCC1=C([O-])C(=O)c2ccccc2C1=O.[Cu+2].c1ccc(-c2ccnc3c2ccc2c(-c4ccccc4)ccnc23)cc1  IC50 (cell viability, MTT; 48 h): 0.32 ± 0.05 µM
CC(=O)OC[C@]1(C)CCC[C@]2(CO)[C@@H]1CC[C@@]13C[C@@H](C[C@H](O)[C@H]12)[C@H](C)C3=O  IC50 (cell growth or viability, MTT): > 20 µM
Cc1cc(C)c([N+]#[C][Pd-]([Cl])([Cl])=[C](Nc2ccc(CN[C](Nc3c(C(C)C)cccc3C(C)C)=[Au][Cl])cc2)Nc2c(C)cc(C)cc2C)c(C)c1  IC50 (cell growth or viability): 30 µM
CC(C)=CCC1=C([O-])C(=O)c2ccccc2C1=O.CC(C)=CCC1=C([O-])C(=O)c2ccccc2C1=O.Cc1cc2cccnc2c2ncccc12.[Cu+2]  IC50 (cell viability, MTT; 72 h): 0.31 ± 0.03 µM
Cc1cc(C)c([N+]#[C][Pd-]([Cl])([Cl])=[C](Nc2ccc(CN[C](NC(C)(C)C)=[Au][Cl])cc2)Nc2c(C)cc(C)cc2C)c(C)c1  IC50 (cell growth or viability): 5 µM
CC(=O)OC[C@]1(C)CCC[C@]2(C)[C@@H]1CC[C@@]13C[C@@H](C[C@H](O)[C@H]12)[C@H](C)C3=O  IC50 (cell growth or viability, MTT): > 20 µM
CC(C)c1cccc(C(C)C)c1N=[C](NCc1ccc(N)cc1)[AuH][Cl]  IC50 (cell growth or viability): 3.6 µM
CC(=O)OC[C@]1(C)CCC[C@]2(COC(C)=O)[C@@H]1CC[C@@]13C[C@@H](C[C@H](O)[C@H]12)[C@@H](C)C3=O  IC50 (cell growth or viability, MTT): > 20 µM
CC(C)c1cccc(C(C)C)c1-n1ccn(-c2c(C(C)C)cccc2C(C)C)c1=[Se].[Cl][Ag]  IC50 (cell growth or viability, MTT; 72 h): 0.6 µM
C#CCN(C(=O)OCc1ccc(B2OC(C)(C)C(C)(C)O2)cc1)[c-]1cccc1.[Fe+2].c1cc[cH-]c1  IC50 (cell growth or viability, MTT; 48 h): 14.2 µM
[Cl][Au].[Se]=c1n(C23CC4CC(CC(C4)C2)C3)ccn1C12CC3CC(CC(C3)C1)C2  IC50 (cell growth or viability; 72 h, 3D culture): 4.4 µM
c1ccc(-c2nn(-c3nc4ccccc4s3)[n+](-c3ccccc3)n2)cc1  IC50 (cell growth or viability, resazurin; 72 h): 23 µM
C=C1C(=O)[C@@]23CC[C@@H]4[C@](C)(COC(C)=O)CCC[C@@]4(C)[C@@H]2[C@@H](O)C[C@@H]1C3 (single isomer, unassigned)  IC50 (cell growth or viability, MTT): 2.4 µM
Cc1cc(C)c(N=[C](NCc2cccc(N)c2)[AuH][Cl])c(C)c1  IC50 (cell growth or viability): > 100 µM
COc1ccc(CNC[C@@](O)(COCc2ccc(OC)cc2)[C@@H]2CC[C@@H](C)C[C@H]2OCc2ccc(OC)cc2)cc1  IC50 (cell growth or viability, MTT; 72 h): 1.5 µM
Cn1ccn(N=Cc2ccccc2SSc2ccccc2C=Nn2ccn(C)c2=S)c1=S  IC50 (cell growth or viability, MTT; 72 h): 0.21 µM
C[N+]1(C)CC[NH2+][Pt-2]1([OH])([Cl])([Cl])[O]C(=O)CCC(=O)OCCOC(=O)CCC(=O)[O][Pt-2]1([OH])([Cl])([Cl])[NH2+]CC[N+]1(C)C  IC50 (cell viability, EZ4U; 96 h): 10 ± 2 µM
[Cl][Au-]1([Cl])[N+](=P(c2ccccc2)(c2ccccc2)C2C=CC=C2)Cc2cccc[n+]21.[Cl][Au-]1([Cl])[N+](=P(c2ccccc2)(c2ccccc2)C2C=CC=C2)Cc2cccc[n+]21.[Fe+2].[O-][Cl+3]([O-])([O-])[O-].[O-][Cl+3]([O-])([O-])[O-]  IC50 (cell growth or viability, MTT; 74 h): 2.7 µM
CC(C)c1cccc(C(C)C)c1[N+]#[C][Pt-]([Cl])([Cl])=[C](Nc1cccc(CN[C](NC(C)(C)C)=[Au][Cl])c1)Nc1c(C(C)C)cccc1C(C)C  IC50 (cell growth or viability): > 100 µM
Cc1c(C)n(-c2c(C(C)C)cccc2C(C)C)c(=[Se])n1-c1c(C(C)C)cccc1C(C)C.[Cl][Au]  IC50 (cell growth or viability, MTT; 72 h): 0.5 µM
O=C(N[c-]1cccc1)OCc1ccc(F)cc1.[Fe+2].c1cc[cH-]c1  IC50 (cell growth or viability, MTT; 48 h): 15 µM
COc1ccc(CNC[C@@](O)(COCc2ccc(F)cc2)[C@@H]2CC[C@@H](C)C[C@H]2OCc2ccc(F)cc2)cc1  IC50 (cell growth or viability, MTT; 72 h): 1.4 µM
Cc1cc(C)c([N+]#[C][Pt-]([Cl])([Cl])=[C](Nc2ccc(CN[C](Nc3c(C)cc(C)cc3C)=[Au][Cl])cc2)Nc2c(C)cc(C)cc2C)c(C)c1  IC50 (cell growth or viability): > 100 µM
c1ccc(-c2nn(-c3ccccn3)[n+](-c3ccccc3)n2)cc1  IC50 (cell growth or viability, resazurin; 72 h): 16 µM
COc1ccccc1CNC[C@](O)(COCc1ccccc1)[C@@H]1CC[C@@H](C)C[C@H]1OCc1ccccc1  IC50 (cell growth or viability, MTT; 72 h): 2.2 µM
